Measurements pooled from the literature.
± gives the spread as reported.
Cell line: HeLa

| SMILES | test | setting | scale | endpoint | result |
| --- | --- | --- | --- | --- | --- |
| O=c1c(/C=N/NC(=S)N/N=C/c2cc(Cl)ccc2O)coc2ccccc12 | annexin V-PI flow cytometry | 50 µM, 24 h |  | apoptotic cells | 13.5% |
| C=C1C(=O)OC2C=C(C)CCC=C(C(=O)OC(C)C(C)(O)C(=O)OC3C(OC(C)=O)C(C(=O)OC)=CCCC(C)=CC4OC(=O)C(=C)C43)CC(OC(=O)C(C)=CC)C12 (centres unmarked) | PI staining flow cytometry | 3 µM, 24 h |  | sub-G1 cells | 5.1% |
| COc1cc2c(=O)c(-c3ccc4c(c3)OCO4)coc2c2c1OC(C)(C)C=C2 | annexin V/PI flow cytometry | 20 µM, 48 h |  | apoptotic cells | 44.1% |
| Cc1cc(/C=C2\CN(C(C)C)C/C(=C\c3cc(C)c(O)c(C)c3)C2=O)cc(C)c1O | annexin V/PI flow cytometry | 5 µM, 24 h |  | apoptotic cells | 18.9 ± 2.11% |
| CC1=[N+]2N=C(c3ccccc3)[O][Pd-2]2([Cl])[O+]=C2Oc3ccccc3C=C21 (centres unmarked) | flow cytometry | IC50, 24 h |  | G2/M phase cells | 18.1% |
| CNC(=O)c1c(C)oc2cc(Oc3ncnc4cc(OC)c(OCCCCCCC(=O)NO)cc34)ccc12 | PI staining flow cytometry | 3 µM, 48 h |  | cells in G2 phase | 23.4% |
| O=c1c(/C=N/NC(=S)N/N=C/c2ccccc2O)coc2ccccc12 | DHE flow cytometry | 1 µM, 24 h | baseline: control | superoxide level | 150 to 160% |
| COc1ccc(CCC(=O)Nc2nc3ccc(Cl)cc3s2)cc1OC | shotgun lipidomics, refers to: LPA 18:0 and LPG 16:0 | 10 µM, 18 h |  | lysophospholipid level | increased |

For quick reference, copied from above:
| SMILES | test | setting | scale | endpoint | result |
| --- | --- | --- | --- | --- | --- |
| Cc1cc(/C=C2\CN(C(C)C)C/C(=C\c3cc(C)c(O)c(C)c3)C2=O)cc(C)c1O | annexin V/PI flow cytometry | 5 µM, 24 h |  | apoptotic cells | 18.9 ± 2.11% |
